Experimental data from different studies.
A part holds a random share of what one study measured.

Series 1
Target: RING finger protein unkempt homolog, zinc fingers 1-6, GST-SBP tag (UNK, Homo sapiens, UniProt Q9C0B0, residues 30-357)
UniProt Q9C0B0, sequence (30-357, looked up): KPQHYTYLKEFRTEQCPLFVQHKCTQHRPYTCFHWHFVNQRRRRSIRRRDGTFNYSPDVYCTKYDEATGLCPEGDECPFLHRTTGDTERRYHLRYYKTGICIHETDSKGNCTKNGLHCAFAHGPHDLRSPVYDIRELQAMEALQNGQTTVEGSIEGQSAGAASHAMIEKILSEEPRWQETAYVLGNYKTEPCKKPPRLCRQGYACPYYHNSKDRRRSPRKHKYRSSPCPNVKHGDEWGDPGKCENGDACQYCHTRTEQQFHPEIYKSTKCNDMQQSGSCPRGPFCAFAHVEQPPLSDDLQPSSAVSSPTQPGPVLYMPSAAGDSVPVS
Technique: RNA Bind-n-Seq
Form: RNA
Sample: in vitro
Tested at: not given
Notes: RNA with constant flanks, human-mouse chimeric sites, ends assumed
Relative to: input RNA pool
Direction: higher = stronger binding
Measurement: bound/input enrichment
Shared flanks, not repeated: GGGAGUUCUACAGUCCGACGAUC … CAACAGAGGAUUGAGCAUCA
AAAGAGAAACUAAAGCAACUAAUAGAGAAGAGGAUUGGCAAAGAGAAUUUCAUAGAGGAAACUAGGAUUAUUAGCAAAACAUGAGUUUAUUCCAGAGCGUCUCAGAAACCCCAGCCAAAC: 8.55 ratio
UCCUGGUCGUGUCCCAGGGGACAAUGUUGUGAACAAAAACUCAAAGCGGACCCUCUAUUGUAGUUCUUGAUUCUCGAAAUGUGCUAUUAUUGUUUGUCUUUUUUUUUUUUUUUUUAAAGA: 1.02 ratio
CACAGAGCAGCACCUACCUCCUCCUUCUUUCCACACCUGCAAACUCUUUUACUUGGGCUGAAUAUUUAGUGUAAUUACAUCUCAGCUUUGAGGGCUCCUGUGGCAAAAUACCCGGAUAAA: 0.769 ratio
ACAGUUAUAUUGUUGAGUUUCAUUUUCAUAUAUUCUUGUAGUGUCUGCUUGCCUGUGACUUCUGGUAAAAUAAAAUAAGCCUUUGAAUUAGCAUGCUCAUGGUAUUUUUCUAAAAAUAAA: 0.91 ratio
CAGUCCCGCGACAGCGUUGCAGGACGAUGUGAACAAAAACUCAAAGCGGACCCUCUAUUGUAGUUCUUGAUUCUCGAGUGCCAUUAUUAUUGUUUGUCUUUUUUUUUUUUUUUUUAAAGA: 1.22 ratio
GGACCAUAAUCAUGGAGGACAUAAUGCAGCUCCCCAAAGCGCGCGUCAACGCCAGCAUGUUACCACAGUAUAUCGACCGGCCCGUGUGCUUCGUAGGGAAGCUGGAAAAGAUUCAUCCCA: 0.133 ratio
GGUGGGGUGGUCAUUGCGCCAAUUGAGGCUGAUUUUCAUGAGUCGCCCAUUCAGAACUCGUGUAGGGUUGACAAUGUGGGGGGGUGGGGGAUCCAGCUUAUUCUUUUAUUUUCAAGUCCA: 0.841 ratio
CUCUUUGAAUCUUUCAAGAGUUUUGAAGGUCUCUUUUAUUUUCUGGGGUCCAUUGUUAACUUUAGCCAGGACCCAGAUGUGCACUUUAAAUAUAUUCAGGCGGCUUGCAAGACUGGGCAA: 0.413 ratio

Series 2
Target: Histone acetyltransferase KAT6A, both winged helices, GST fusion (KAT6A, Homo sapiens, UniProt Q92794, residues 1-181)
Technique: protein binding microarray
Form: double-stranded DNA, one strand shown
Sample: in vitro
Tested at: not given
Notes: 8-mer, flanks averaged, mean of 2 arrays, mostly near background
Relative to: not given
Direction: higher = stronger binding
Measurement: E-score
Residues (chain): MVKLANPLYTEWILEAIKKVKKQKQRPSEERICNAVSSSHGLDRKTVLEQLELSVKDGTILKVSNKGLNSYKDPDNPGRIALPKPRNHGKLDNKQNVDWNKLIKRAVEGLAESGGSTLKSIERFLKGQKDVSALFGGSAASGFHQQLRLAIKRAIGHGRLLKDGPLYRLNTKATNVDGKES
ACTGCGAC: 0.14
ATCCCAGC: -0.228
AAAGGATA: -0.0729
CAAATTGG: -0.15
ACACGTTA: -0.178
ACACAAGG: -0.126
CTATAACA: -0.13
CGGACGGA: 0.212
ACGAACTC: 0.0868
CCGGCTAC: 0.198
AACCGGGG: 0.0404

Series 3
Target: Interferon regulatory factor 5, full length, phosphomimetic (IRF5, Homo sapiens, UniProt Q13568-2, residues 1-514, K96S/S451D/S453D/S456D/S462D)
Technique: protein-binding microarray
Form: double-stranded DNA, one strand shown
Sample: in vitro
Tested at: 250 nM
Notes: 60-bp whole probe
Added: salmon DNA 0.4 mg/ml
Relative to: random background probes
Direction: higher = stronger binding
Measurement: log fluorescence
Shared flanks, not repeated: GCCTAGCAC … GTCTTGATTCGCTTGACGCTGCTG
ATGAGTCTCAAAATTAGAGAGTGCTAG: 0.0504 z-score
TTAGGATTCGGTTTCGGTTAGTGCTAG: 9.36 z-score
GACGAACTGAGACTGGAGAGGTGCTAG: -0.598 z-score
GACAGACTGCTACTGCTGACGTGCTAG: -0.343 z-score
GACGGTCTCGGTTTCGGGAGGTGCTAG: 3.03 z-score
TTGGATATCGGGACTGGATTAGTGCTA: 0.565 z-score
GACGGTCTCGGTCTCAGGACGTGCTAG: -0.0405 z-score
TTAGGTTTCGGACTGGGTCAGTGCTAG: 5.37 z-score
TCAAGTCTCAAAATTAGACTGTGCTAG: 0.165 z-score
TTAGGTTTCGGTTTCGTTTAGTGCTAG: 11.4 z-score
TTAGATATCAGTATCGATCAGTGCTAG: 7.16 z-score
TTAGGACAGCTTATCCTTTAGTGCTAG: -0.389 z-score
CTCTGTTTATGTCTGGGTATGTGCTAG: 0.349 z-score
GACGGTCTCGGTTTCGCGACGTGCTAG: 0.85 z-score
TTAGGACTGGGGACTGGGTTTGTGCTA: -0.505 z-score

Series 4
Target: RNA binding protein fox-1 homolog 2, RRM domain, GST-SBP tag (RBFOX2, Homo sapiens, UniProt O43251-10, residues 100-194)
Technique: RNA Bind-n-Seq
Form: RNA
Sample: in vitro
Tested at: 365 nM
Notes: natural RNA segment, single round, ends assumed
Relative to: no-protein control
Direction: higher = stronger binding
Measurement: RBNS enrichment (R)
Shared flanks, not repeated: GGGAGUUCUACAGUCCGACGAUC … UGGAAUUCUCGGGUGCCAA
Construct (chain): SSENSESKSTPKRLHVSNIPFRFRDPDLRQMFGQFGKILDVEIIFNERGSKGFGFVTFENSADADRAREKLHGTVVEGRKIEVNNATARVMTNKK
UGGGCUUUUCCCCACCCAGAGAAUAGCCCCCUUCGAUACACAUCAGCUGGAUUUUCAAAAGCUUCAAAGUCUUGGUCUGUGAGUCACUCUUCAGUUUGGGAGCUGGGUCU: 0.344
UAAGACACCUUGUAGUAUUUUGGGAGCAAAAAAAUUAUUUUCUCUUAACAAGACUUUUUGUACUGAAAACAAUUUUUUUGAAUCUUUCGUAGCCUAAAAGACAAUUUUCC: 0.543
CUGUGGAAGGAAGUGGCUGUGACUUUAACCACUGGAGAGCGGAGUCUGUGGUGUGGAGAGGGUGUUCACUGUGUAAUCUUGGGCUGUGUGGAGUUGUUCUUAUCACCUUG: 2.01
UAUUGUUUUUCUAACAUGGCUUCAUUAAACGUUUAAGUAUUUUAAAAAUAUGUAAUAUUUGGACCAGAUGUUGUGAAUAAUAGUAGAGAUAAAGCUAUUUUAUUCUGUAU: 0.402
UUAUGUGUGAGCUAGAAUCUAGGGUAGCUGUCCACUUCUUUUUCUGUUGUCCUGACAGUAAAGCAAAUAGUAAGCCAUGUCUUGAAAGUGAUUUGCUUGUUUCAUACUGA: 1.64
UACUUCCAACUUGUUCUGAUGCCCUCUGUUUCCCAGGCCAGGCUUGUCUGUGGUGACCUGGGCAUGGGUGACAGGGCUCUCAUUUGCCCCUUGGUCUCUUUAUGCUGCUG: 0.925
CUCUGACCCCAGAGCUCUGAAGAAUGCUCUUAUCAGAAGAUAGGAAAUGAAAAUAUCCUUUUUUAAAAUAUGUGGAAGUAAUUUGGGUAUAAUUAGUUUUUUUCUACCUU: 1.24
UUCAAGCUAGGAAACGGAGAGAACACAGCUUGUUCAAAAGGGUUGAAUUUGGGCUCAAUCCAUAAUUUUUGACAUUUUCACAAAAAUAUGGUUUGCACUUUUUAAUCUAA: 0.607

Excerpt of the above (series 2):
CGGACGGA: 0.212
ATCCCAGC: -0.228
ACTGCGAC: 0.14
ACACGTTA: -0.178
